Measured values pooled from the literature.
Each numbered part is a random draw from the data of one study; scales do not carry over between parts.
Sequence of UniProt P08588 (whole entry, looked up): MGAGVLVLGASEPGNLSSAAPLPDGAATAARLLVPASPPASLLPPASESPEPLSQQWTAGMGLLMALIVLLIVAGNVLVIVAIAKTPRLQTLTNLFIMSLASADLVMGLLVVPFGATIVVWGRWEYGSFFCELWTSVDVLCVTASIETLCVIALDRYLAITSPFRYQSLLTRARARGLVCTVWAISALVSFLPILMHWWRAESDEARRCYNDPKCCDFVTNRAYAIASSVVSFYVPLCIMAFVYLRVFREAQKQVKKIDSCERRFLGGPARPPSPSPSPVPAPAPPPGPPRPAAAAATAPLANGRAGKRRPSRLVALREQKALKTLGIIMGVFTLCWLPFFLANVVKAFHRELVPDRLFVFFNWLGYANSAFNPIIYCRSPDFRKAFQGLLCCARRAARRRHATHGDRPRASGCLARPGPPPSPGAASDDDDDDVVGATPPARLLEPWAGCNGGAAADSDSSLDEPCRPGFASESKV

Sample 1
Target: Protein C-ets-1 (ETS1, Homo sapiens, UniProt P14921, residues 1-441, full length assumed)
Sequence of UniProt P14921 (whole entry, looked up): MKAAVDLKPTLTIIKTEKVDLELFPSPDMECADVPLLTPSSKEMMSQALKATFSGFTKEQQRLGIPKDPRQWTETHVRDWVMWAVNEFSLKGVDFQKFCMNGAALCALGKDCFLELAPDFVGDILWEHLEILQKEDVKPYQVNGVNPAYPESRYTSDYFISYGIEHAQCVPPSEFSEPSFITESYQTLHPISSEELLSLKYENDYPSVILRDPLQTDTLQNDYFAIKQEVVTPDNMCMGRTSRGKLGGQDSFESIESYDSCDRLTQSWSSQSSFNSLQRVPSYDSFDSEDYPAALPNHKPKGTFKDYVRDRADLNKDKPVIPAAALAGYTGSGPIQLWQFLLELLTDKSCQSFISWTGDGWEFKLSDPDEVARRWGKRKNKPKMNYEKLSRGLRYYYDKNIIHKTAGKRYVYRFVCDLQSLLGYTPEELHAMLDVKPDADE
Technique: protein-binding microarray
Molecule type: double-stranded DNA, one strand shown
Matrix: in vitro
Concentration: not given
Notes: k-mer, scored over probes, only values ≥0.25
Direction: higher = stronger binding
Oligonucleotide | E-score
CCTGTTTC | 0.327
TATTTCCA | 0.351
ACGGGATA | 0.297
CCGGGAAC | 0.333
GGAAGTGA | 0.467
CAGTTCCG | 0.438
AAACAGGA | 0.433
GATTTCCC | 0.343

Sample 2
Target: PABPC1L2, full length, GST fusion (mouse, UniProt A0ABA7IW68)
Technique: RNAcompete
Molecule type: RNA
Matrix: in vitro
Concentration: 20 nM
Notes: 7-mer, probes averaged, single round
Reference: mean of 7-mers
Direction: higher = stronger binding
Target sequence (chain): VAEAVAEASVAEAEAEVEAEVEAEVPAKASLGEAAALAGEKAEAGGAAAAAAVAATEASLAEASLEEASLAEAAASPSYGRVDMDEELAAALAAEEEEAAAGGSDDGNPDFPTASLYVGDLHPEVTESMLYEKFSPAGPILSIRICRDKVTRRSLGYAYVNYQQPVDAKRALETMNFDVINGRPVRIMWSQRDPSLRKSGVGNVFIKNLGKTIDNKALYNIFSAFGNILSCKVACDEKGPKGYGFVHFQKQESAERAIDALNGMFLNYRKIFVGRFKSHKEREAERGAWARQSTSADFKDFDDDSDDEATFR
Oligonucleotide | 7-mer Z-score
CCUCAUA | -0.204
CAAUCAG | 0.0569
AUCCUUA | -0.322
UUUUCCG | -0.42
UCUUCCU | -0.38
GUUCCAU | -0.258
UUCCAUA | -0.275
CCCUGUA | -0.244

Sample 3
Target: Sal-like protein 4, full length isoform A (SALL4, Homo sapiens, UniProt Q9UJQ4, residues 1-1053)
Sequence of UniProt Q9UJQ4 (whole entry, looked up): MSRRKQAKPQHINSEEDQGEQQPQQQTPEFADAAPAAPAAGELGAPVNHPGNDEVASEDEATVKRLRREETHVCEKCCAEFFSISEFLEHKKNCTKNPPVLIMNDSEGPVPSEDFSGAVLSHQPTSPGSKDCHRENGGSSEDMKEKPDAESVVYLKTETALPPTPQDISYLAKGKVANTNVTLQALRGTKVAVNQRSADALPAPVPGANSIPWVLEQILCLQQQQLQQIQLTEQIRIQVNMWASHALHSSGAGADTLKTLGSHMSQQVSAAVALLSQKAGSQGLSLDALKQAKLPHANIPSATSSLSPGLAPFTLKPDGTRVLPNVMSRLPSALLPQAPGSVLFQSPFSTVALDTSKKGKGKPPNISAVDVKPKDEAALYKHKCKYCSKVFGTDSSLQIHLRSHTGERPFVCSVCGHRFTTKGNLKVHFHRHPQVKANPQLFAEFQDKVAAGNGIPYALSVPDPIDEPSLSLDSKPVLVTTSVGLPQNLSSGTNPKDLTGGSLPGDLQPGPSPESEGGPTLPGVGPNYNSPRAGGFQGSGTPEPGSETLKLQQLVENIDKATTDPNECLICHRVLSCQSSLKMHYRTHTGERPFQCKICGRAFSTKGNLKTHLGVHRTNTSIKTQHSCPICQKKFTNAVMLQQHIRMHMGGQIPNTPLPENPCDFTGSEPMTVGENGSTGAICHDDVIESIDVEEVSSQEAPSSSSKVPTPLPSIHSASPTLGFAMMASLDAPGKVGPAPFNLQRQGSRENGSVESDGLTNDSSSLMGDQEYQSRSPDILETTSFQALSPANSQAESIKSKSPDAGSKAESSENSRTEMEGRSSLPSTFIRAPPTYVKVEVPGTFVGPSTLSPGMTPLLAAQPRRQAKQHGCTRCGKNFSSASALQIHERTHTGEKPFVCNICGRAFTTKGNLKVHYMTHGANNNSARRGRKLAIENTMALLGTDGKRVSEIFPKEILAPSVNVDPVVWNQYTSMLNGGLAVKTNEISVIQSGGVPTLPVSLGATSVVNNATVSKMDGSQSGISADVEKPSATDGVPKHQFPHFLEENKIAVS
Technique: universal PBM
Molecule type: double-stranded DNA, one strand shown
Matrix: in vitro
Concentration: 600 nM
Notes: 8-mer, flanks averaged, mean of replicates
Direction: higher = stronger binding
Oligonucleotide | E-score
ATTGGGCC | -0.11
TCATCGGA | 0.0301
ATTGGTAC | -0.0566
CCTCTTCC | -0.201
CATGCCAA | 0.11
AGTCGGTG | -0.274
GAGTCAAC | 0.038
CGAGAACA | -0.0995

Other studies, line by line
SMILES | target | effect on | technique | concentration | endpoint | value
CNC(=O)c1cc(C(=O)N[C@H]2[C@@H]3COC[C@@H]32)cc2c1O[C@@H](CF)[C@@H]2c1ccccc1 | Beta-1 adrenergic receptor (ADRB1, Homo sapiens, UniProt P08588) | binding | radioligand binding | 10 µM | inhibition | 6.93%
